Experimental data collected from several papers.
A part holds a random share of what one study measured. Changes are numbered by the printed parent chain.

Study 1
Target: Histone acetyltransferase KAT6A, winged helix 1, GST fusion (KAT6A, Homo sapiens, UniProt Q92794, residues 1-85)
Technique: protein binding microarray
Molecule type: double-stranded DNA, one strand shown
Matrix: in vitro
Tested at: not given
Setting: 8-mer, flanks averaged, mean of 2 arrays, mostly near background
Relative to: not given
Reading: higher = stronger binding
Construct (chain): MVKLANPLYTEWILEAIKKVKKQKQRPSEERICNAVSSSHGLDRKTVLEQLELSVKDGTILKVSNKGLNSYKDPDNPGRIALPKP
Oligonucleotide | E-score
GCTGCTTA | -0.0293
CGATACAC | -0.000575
GAGGAATA | -0.203
AACCCTCC | -0.119
AGAACCTG | -0.246
CCAGGGAA | -0.144
ATCTTCGG | -0.0839
CCCGCCCA | 0.179
CGACGGAG | 0.334
CCCTTAAA | -0.173
ACTACCTA | 0.0455
ATGACCTC | -0.0337
ACATTAGG | -0.105
CGGGATCA | 0.294
AGATTACT | -0.181
ACGAGTGC | 0.0979

Study 2
Target: ATF5, bZIP domain (human)
Technique: DHFR protein complementation
Matrix: yeast
Setting: single substitutions, most at no-binding floor
Relative to: wild-type JUN-FOS pair
Reading: higher = stronger binding
Starting sequence: JUN, bZIP domain (human); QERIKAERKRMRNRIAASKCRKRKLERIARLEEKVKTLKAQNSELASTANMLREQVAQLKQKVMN; partner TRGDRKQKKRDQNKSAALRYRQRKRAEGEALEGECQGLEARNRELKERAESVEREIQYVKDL
Variant | binding fitness [natural log]
T37H | -1.47
A49S | -1.41
A29W | -1.5
E54D | -1.1
Q41V | -1.29
R30N | -1.53
R30F | -1.45
L31R | -1.53
I28P | -1.42
K39C | -1.53
T48K | -1.35

Study 3
Target: UBE2E1 UBC core domain (UniProt P51965)
Chain of UniProt P51965 (whole entry, looked up): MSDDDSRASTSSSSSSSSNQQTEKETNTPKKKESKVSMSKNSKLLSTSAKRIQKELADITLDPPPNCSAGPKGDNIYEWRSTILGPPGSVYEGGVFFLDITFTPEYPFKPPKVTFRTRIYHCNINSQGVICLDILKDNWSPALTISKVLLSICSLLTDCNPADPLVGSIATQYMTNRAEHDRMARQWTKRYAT
Technique: yeast two-hybrid
Matrix: yeast
Setting: mostly zero background
Relative to: not given
Reading: higher = stronger interaction
B1: TRIM38 RING domain (UniProt O00635); chain STKKMMEEATCSICLSLMTNPVSINCGHSYCHLCITDFFKNPSQKQLRQETFCCPQCRAPFHMDSLRP
B2: TRIM3 RING domain (UniProt O75382); chain VQPMDKQFLVCSICLDRYQCPKVLPCLHTFCERCLQNYIPAQSLTLSCPVCRQTSILPEQGV
B3: RFPL2 RING domain (UniProt O75678); chain MAALFQEASSCPVCSDYLEKPMSLECGCAVCLKCINSLQKEPHGEDLLCCCSSMVSRKNKIRR
B4: RNF149 RING domain (UniProt Q8NC42); chain EKGIDVDAENCAVCIENFKVKDIIRILPCKHIFHRICIDPWLLDHRTCPMCKLDVIKALGYW
B5: NSMCE1 RING domain (UniProt Q8WV22); chain RETYPDAVKICNICHSLLIQGQSCETCGIRMHLPCVAKYFQSNAEPRCPHCNDYWPHEIPKV
B6: RNF112 RING domain (UniProt Q9ULX5); chain QPMAPRELPTCSICLERLRDPISLDCGHDFCIRCFSTHRLPGCEPPCCPECRKICKQKRGLR
B7: MSL2 RING domain (UniProt Q9HCI7); chain LLPYFRQSLSCCVCGHLLQDPIAPTNSTCQHYVCKTCKGKKMMMKPSCSWCKDYEQFEENKQ
B8: RNF175 RING domain (UniProt Q8N4F7); chain LPTRSLSDNICAVCGQKIIVELDEEGLIENTYQLSCNHVFHEFCIRGWCIVGKKQTCPYCKEKVDLKRMIS
B9: TRIM52 RING domain (UniProt Q96A61); chain PMQTLQEEAVCAICLDYFKDPVSISCGHNFCRGCVTQLWSKEDEEDQNEEEDEWEEEEDEEAV
B10: TRIM15 RING domain (UniProt Q9C019); chain SLKVVHELPACTLCAGPLEDAVTIPCGHTFCRLCLPALSQMGAQSSGKILLCPLCQEEEQAETPMA
Sequence | lacZ reporter activity
B1 (TRIM38 RING domain) | 0
B2 (TRIM3 RING domain) | 0
B3 (RFPL2 RING domain) | 0
B4 (RNF149 RING domain) | 0
KRQCSDVDDICSICQAEFQKPILLICQHIFCEECMTLWFNREKTCPLCRTVISDHINKW (RNFT1 RING domain (UniProt Q5M7Z0)) | 0
B5 (NSMCE1 RING domain) | 0
B6 (RNF112 RING domain) | 0
B7 (MSL2 RING domain) | 0
B8 (RNF175 RING domain) | 0
B9 (TRIM52 RING domain) | 0
ISNDSETLEECMVCSDMKRDTLFGPCGHIATCSLCSPRVKKCLICKEQVQSRTKIE (MIB1 RING domain (UniProt Q86YT6)) | 0
B10 (TRIM15 RING domain) | 0

Study 4
Target: ABI1, truncated, D143A, DHFR fusion (Arabidopsis thaliana)
Technique: DHFR PCA, deep sequencing
Matrix: yeast
Setting: methotrexate growth selection, single substitutions
Together with: (+)-ABA 0.11 µM
Relative to: wild-type fitted maximum
Reading: higher = stronger binding
Starting sequence: PYL1, truncated, DHFR fusion (Arabidopsis thaliana); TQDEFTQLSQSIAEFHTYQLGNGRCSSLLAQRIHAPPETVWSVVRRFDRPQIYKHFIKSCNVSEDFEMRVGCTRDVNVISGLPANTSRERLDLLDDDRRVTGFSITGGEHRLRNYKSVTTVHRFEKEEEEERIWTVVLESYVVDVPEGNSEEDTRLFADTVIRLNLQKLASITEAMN; partner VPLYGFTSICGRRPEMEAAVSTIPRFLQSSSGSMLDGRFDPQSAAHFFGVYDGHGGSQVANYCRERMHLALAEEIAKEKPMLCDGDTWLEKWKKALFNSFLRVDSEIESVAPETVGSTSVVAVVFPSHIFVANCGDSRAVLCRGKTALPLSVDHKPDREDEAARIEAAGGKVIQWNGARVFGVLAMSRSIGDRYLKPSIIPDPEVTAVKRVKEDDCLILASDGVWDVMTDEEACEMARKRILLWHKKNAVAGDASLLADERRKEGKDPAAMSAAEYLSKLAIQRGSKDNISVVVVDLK
Variant | relative binding score [%]
F56P | 3.41
P50V | 27.6
F56R | -0.395
F103E | -10.7
L93D | -5.63
S104M | 0.0238
E151H | 20.9
N149H | 37.4
I33N | -2.7
M176N | 2.33
E152G | 2.79
V142A | 20.2
I133A | 50.2
Y53I | -4.87
K58Y | 1.94
C25I | 52.3

Study 5
Target: CCNE2, cyclin fold, Cln2 fusion (human)
Technique: yeast growth competition, sequencing
Matrix: yeast
Setting: weak parent motif
Relative to: not given
Reading: higher = stronger binding
Starting sequence: PKMYT1 docking peptide (human); SFEPRNLLSLFED
Variant | normalised enrichment score
L7R | -0.313
F2Y | -0.24
N6Q | 0.272
S1D | 1.06
N6P | 0.0408
S9P | 1.13
E12M | 0.23
L8R | 0.467
D13W | -0.357
F11A | -0.216
S9E | 0.184
D13F | 0.593
S9L | 0.507
D13V | -0.104
F2I | -0.95
S1Q | -0.129
E12K | 0.028
R5M | 0.535
L8V | -0.463
L10R | 0.138
P4W | -0.0284
E3G | -0.256
E12H | 0.154
N6L | 0.116
P4G | -0.17

Study 6
Target: Sal-like protein 4, full length isoform B (SALL4, Homo sapiens, UniProt Q9UJQ4-2, residues 1-616)
Technique: universal PBM
Molecule type: double-stranded DNA, one strand shown
Matrix: in vitro
Tested at: not given
Setting: 8-mer, flanks averaged, mean of replicates
Reading: higher = stronger binding
Oligonucleotide | E-score
GGCCCACA | -0.165
CAACTAAG | -0.112
ATTCTCCG | -0.0626
GATCAAGC | -0.09
ACTGTTCA | -0.0652
ACAGTGAA | 0.0695
GTGAATCA | -0.0506
CGAATTCC | -0.0477
CGGGAGCC | -0.351
CTAACGAG | -0.0254
ACCTAAGC | -0.124
AGGGTTAC | -0.206
CGAGATGC | -0.0172
AACACTGG | 0.048
CATTGCTC | -0.181
ACAAAAGT | 0.129
TTGAACAA | 0.0727
ACGAGTCT | 0.00212
GCGATTGA | -0.00053
ACTACAGT | 0.0339
CATGCATG | 0.256
GCACACAA | 0.0186
GTATGTTA | 0.271
ATGCCGTC | -0.0674

Some of these lines once more (study 5):
Variant | normalised enrichment score
S1D | 1.06
F2Y | -0.24
D13F | 0.593
E3G | -0.256
N6L | 0.116
S9L | 0.507
E12K | 0.028
L8R | 0.467
L7R | -0.313
S9P | 1.13
S9E | 0.184
P4G | -0.17
R5M | 0.535
D13V | -0.104
E12M | 0.23
N6Q | 0.272
F2I | -0.95
